Published values gathered from unrelated publications.
Cell line: human Fibroblast
Observed: cell growth or viability

SMILES | method | time | IC50 [µM]
C[C@]12CC/C(=N\OCCN3CCCC3)C=C1CCC1C2CC[C@]2(C)/C(=C/c3ccccn3)CCC12 (stereo partly shown) | resazurin | 72 h | 25.3
Cc1ccc2c(c1)C(=O)[C@](C)([N+](=O)[O-])[C@@H](CC(=O)NC13CC4CC(CC(C4)C1)C3)O2 | SRB | 96 h | > 100
COC1CCC(Nc2nc(-c3nccn3C)nc3sc(-c4ccn(C)n4)c(-c4ccccc4)c23)C1 (stereo not shown) | – | 72 h | 0.3
O=c1[nH]c(=O)n([C@@H]2O[C@H](CSSc3ccccn3)[C@@H](O)[C@H](F)[C@H]2O)cc1F | – | – | 36
C[C@]1([N+](=O)[O-])C(=O)c2ccccc2O[C@@H]1CC(=O)O | SRB | 96 h | > 100
COc1ccc(/N=N/C(=S)N2CCN(C)CC2)cc1 | resazurin | 48 h | > 50
C[C@]1([N+](=O)[O-])C(=O)c2ccccc2O[C@@H]1CC(=O)Nc1nc2ccccc2s1 | SRB | 96 h | > 100
CN(C)CCCO/N=C1/C=C2CCC3C(CC[C@]4(C)/C(=C/c5ccccn5)CCC34)[C@@]2(C)CC1 (stereo partly shown) | resazurin | 72 h | 7.5
CSc1ccccc1NC(=O)c1[nH]c2cc(C)sc2c1CN1CCOCC1 | SRB | – | > 20
CCCCOC(=O)C[C@H]1Oc2ccccc2C(=O)[C@]1(C)[N+](=O)[O-] | SRB | 96 h | > 100
C[C@]12CC/C(=N\OCCN3CCCCC3)C=C1CCC1C2CC[C@]2(C)/C(=C/c3ccccn3)CCC12 (stereo partly shown) | resazurin | 72 h | 20
C[C@]1([N+](=O)[O-])C(=O)c2ccccc2O[C@@H]1CC(=O)OC1CCCCC1 | SRB | 96 h | > 100
C[C@]12CC/C(=N\OCCN3CCOCC3)C=C1CCC1C2CC[C@]2(C)/C(=C/c3ccccn3)CCC12 (stereo partly shown) | resazurin | 72 h | > 50
Cc1cc2[nH]c(C(=O)Nc3cc(F)ccc3Cl)c(CN(C)C)c2s1 | SRB | – | > 20
CN1CCCC1CCO/N=C1/C=C2CCC3C(CC[C@]4(C)/C(=C/c5ccccn5)CCC34)[C@@]2(C)CC1 (stereo partly shown) | resazurin | 72 h | 27.6
COc1ccc(/N=N/C(=S)N2CCCC2)cc1 | resazurin | 48 h | > 50

Some of these lines once more:
SMILES | method | time | IC50 [µM]
C[C@]1([N+](=O)[O-])C(=O)c2ccccc2O[C@@H]1CC(=O)OC1CCCCC1 | SRB | 96 h | > 100
CN1CCCC1CCO/N=C1/C=C2CCC3C(CC[C@]4(C)/C(=C/c5ccccn5)CCC34)[C@@]2(C)CC1 (stereo partly shown) | resazurin | 72 h | 27.6
